Assay results pooled from the literature.
Numbered parts are unrelated; each lists some results of a single study.

Set 1
Target: Hepatocyte nuclear factor 3-alpha (Foxa1, Mus musculus, UniProt P35582, residues 1-468, full length assumed)
Sequence of UniProt P35582 (whole entry, looked up): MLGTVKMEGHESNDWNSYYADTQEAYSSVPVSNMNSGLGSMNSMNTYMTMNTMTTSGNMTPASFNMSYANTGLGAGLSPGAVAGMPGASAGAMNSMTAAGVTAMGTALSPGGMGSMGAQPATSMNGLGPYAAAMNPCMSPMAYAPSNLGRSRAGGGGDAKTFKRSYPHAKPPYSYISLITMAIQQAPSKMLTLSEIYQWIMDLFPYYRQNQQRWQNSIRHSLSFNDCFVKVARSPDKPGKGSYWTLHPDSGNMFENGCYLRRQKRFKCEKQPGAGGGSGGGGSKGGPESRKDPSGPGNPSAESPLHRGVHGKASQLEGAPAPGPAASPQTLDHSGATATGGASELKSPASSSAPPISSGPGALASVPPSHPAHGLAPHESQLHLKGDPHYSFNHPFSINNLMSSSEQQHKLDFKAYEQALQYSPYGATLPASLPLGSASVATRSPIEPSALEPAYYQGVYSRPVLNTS
Method: EMSA with sequencing
Molecule type: double-stranded DNA, one strand shown
Medium: in vitro
Tested at: 10 and 20 nM
Notes: whole designed probe, mean of two concentrations, ends assumed
Baseline: negative control set to 0
Reading: higher = stronger binding
All sequences stand within: GTGAGCGGTGCCCATTGATGGGGAAC … TTTCACTGGGATCGTGGGGAC
Oligonucleotide | normalised bound fraction
TTTCCAGCCCTTAGTTTCTGGCATTTAACCTGACTCTGGTCCCTGAATGGCATGGGAGTGCTTTCAACCACTGACTCATTCATTCATGCCACTTGTTTGCTTTTCTGTCACATTCTGATCTACAGAGATCTTTATTTGCTTTGTGTTTCCAATGGAGAAAGAGCTTGGGAAGGGAGGATCCTAATTGTCTAAA | 0.489 ratio
ATCTAGTTCCAGTCTTAGCTTGGCAATTTCTTCCCGCAACATGCTGTTTTCACGCAAGAGATCTTCTTCTTTCTTATGACTAAGAGAAAGCTAAGTAAACAAAGGGAACTTTTAGTTAGCACTCAATAGAATGACATATCATGATTTCTTCTAAAATCAAAGAATGACATTTATATTTGTATAATGAAATAAT | 0.51 ratio
TTTCCAGCCCTTAGTTTCTGGCATTTAACCTGACTCTGGTCCCTGAATGGCATGGGAGTGCTTTCAACCACAGGTTTCCACATTCATGCCACTAGATTGCTTTTCTGACTCATTCTGATCTACAGAGATCTTAAATTGCTTTGTGTTTCCAATGGAGAAAGAGCTTGGGAAGGGAGGATCCTAATTGTCTAAA | -0.0887 ratio
ATCTTCCCCCTCTTCCTTGCCCCACCAGCTCACCTACGGGGGTTATTTGCACAAAGGAAAATAAATAAAGCCGGCATTCGTTAACCCTCTTCACGCGCATACTGCTGTTTGCTCTGCATGAATCATGGTCCTTACGCGAGGCGTGGCTCCGGGAGAGCAAAGCACCGTGTCAGGCGCATGATCCGGGGTGGCC | 0.391 ratio
CACTCATAGTCTTGCTATCCTTCATATACAGAGATGACCCTCCCAAGCCTAAAATCAACAGGGGGAGGCATAGAGCTGTCCTTCTGGCTCTAATGTTTGCTTTACCATCATCTTAGTCCACGCCCATTCCAGCATGTGAGAGCCAGTGTGAAGTGAGCAGAATATGGCATAAGTATGGAGTCATACATCCTTA | 0.372 ratio
ATCTTCCCCCTCTTCCTTGCCCCACCAGCTCACCTACGGGGGTTATTTGCACAAAGGAAAATAAATAAAGCCGGCATTCGTTAACCCTCTTCACGCGCATACTGCTGTTTGCTCTGGATCTAACATGGTCCTTTGGCGAGGCGTGGCTCCGGGAGAGCAAAGCACCGTGTCAGGGCCATGATCCGGGGTGGCC | 0.383 ratio
AGATCTAGACTAATTCATCCCCTTCATTTTAAGTTTAGGTTTTAAATAGCTTTGTTTGGCTTGATCCTAGAGCTACACATTTACTTTTAACTTGTTTACTTTGTACCCTATCATTTAGGATATGCTATGTACTATTGTACTCTATTTGATATTTCAAACATTCTCTCATTTAGTGAAGAAGCTCCCAACCGGA | 0.483 ratio
CCTGTGGGATAACATCAAGTGCTCTAACGTAAGTATCACTGCAGTCCTGGGAAGGGGCAGGGCGGGACTATTTGAAAACATGATGACTAAATGTAATTTCTCAAGGTATGATGACACTGTATGCAGAGTACTCAACACAAAGGGTTCAGTGTTAAATGTAGACTTACACGGGTATATGGTACCCACAACTCAA | 0.0202 ratio

Set 2
Target: RNA binding protein fox-1 homolog 2, RRM domain, GST-SBP tag (RBFOX2, Homo sapiens, UniProt O43251-10, residues 100-194)
Method: RNA Bind-n-Seq
Molecule type: RNA
Medium: in vitro
Tested at: 365 nM
Notes: natural RNA segment, single round, ends assumed
Baseline: no-protein control
Reading: higher = stronger binding
All sequences stand within: GGGAGUUCUACAGUCCGACGAUC … UGGAAUUCUCGGGUGCCAA
Residues (chain): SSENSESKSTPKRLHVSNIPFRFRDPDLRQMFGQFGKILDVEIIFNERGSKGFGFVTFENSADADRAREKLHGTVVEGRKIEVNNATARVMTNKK
Oligonucleotide | RBNS enrichment (R)
UUGGAAAACUAUAAAAAAUGCUUUGUUAAUGUGUGUAUUCCUAUGUAAAACACAUGGCUUCUUCUGUGUAUAUUUUUUAAAAUUAAAGACUUGCACAUUUAAAAAACUGU | 0.794
GGCUGUCAAGAGAAUCUAGGUCUGCUAUGACUUAUUCCAAGUCCUCAGAGUUAAGUCAAGGAGUGUUCUUUGCCCCAGUCUCCCUAAGACAGUGCCUAUACAUUGGACAA | 0.273
AUUGAAUUUAUGCAUUAGUCUGGUGAUUUCAGUUCUGUGAAAUAUUUUGGGAUCUAUACCAAUUAAACAUUUUCAUAGUUCUGCCUAUUGUCCUUCCCUGAGGCUCCAUU | 0.325
GUUUUUCUCUACUUCUGAAAUGAGUUGUUCACCAGUAUUAUCUUCUCCCAUCCUAAGCUGUUCAUUUUAAGAUGUGGCAGAGUAAAGUGGUUUUUCCUAACUUACUUGCU | 0.235
UUUUGAGGUGGGGGGAGGGAGGAGGUAUAUUGGAACUCUUCUAACCUCCUUGGGCUAUAUUUUCUCUCCUCGAGUUGCUCCUCAUGGCUGGGCUCAUUUCGGUCCCUUUC | 0.34
AUGUCCGUGACAUUAAAGGCUCCACAUGAUUGACCACAGCAUGGGAGAGCGGUGUUCUUCACUCGACUCCACCCUGCUGGACACAGGAAAAUUUCAAUUGCUAAAAAAAA | 0.271
CUGGCCCUGCAAAUGUUUACAGAAAUGAAAUUCUUCCUACUUAUAUAAGAAAUCUCACACUGAGAUAGAAUUGUGAUUUCAUAAUAACACUUGAAAAGUGCUGGAGUAAC | 0.341
AAUAUUUUUUUCUUAGUGAUUUUGACAGUUUAAAUGUUUAACAACUUAAAGCAUUAAAAAUGCUUAUUAAUAACUUUGGUCAUUUAAAAAAUGCUACAAUGACUUCCUAU | 0.498
CACAUGAAACUCUGGGAUCCAGUGAAGGGUCCUGCUUGGUCUUGUUUUCAGAGUCUGUAACAUUGAAGCCCUCCAUCAGAUCUACCUAUUACUGCUGCUUUAGAGCAUGA | 0.722
CCUGUGACUGUGCAGCCUGACCCCGCAUAUGUUCCUGUGUGUUUGUGUGGUCUCCCCUUGUUUGGGGCUCAUACUGGGUAAGAGGCCCAGGAUAGCCAGCUUGCUUCUCU | 2.51
CCCACUGGCCAGUCCUAGAGCUCCUGUCCCUACCCACUCUUUGCUACAAUAAAUGCUGAAUGAAUCCGCUCUGAGCCUGGUAUGUUUGGGGGACUGGGAAAAGUAGGGGA | 0.902
GGUCUGGCUUGAGCAUCUAUGGGCAGCCACAGCGACCAGUCUAGUCCCAGACAGCACAGGUCAAGCAGCGUGGGACUGUGGAGCCCCUGGCAGGCUGGCCUGGUGCUGCC | 0.223

Set 3
Target: Prothrombin, mature alpha-thrombin (F2, Homo sapiens, UniProt P00734)
Method: aptamer microarray, sandwich
Molecule type: DNA with 2'F-ANA
Medium: in vitro
Tested at: 200 nM
Notes: whole 15-mer aptamer, many near background
Together with: Cy3 exosite-II aptamer, 400 nM
Reading: higher = stronger binding
Oligonucleotide: GGTTGGTGTGGTTGG
Modification | mean fluorescence intensity [a.u.]
2'F-ANA at 1 2 5 6 7 9 11 12 14 15 | 48.7
2'F-ANA at 1 4 5 6 11 13 14 15 | 47.4
2'F-ANA at 1 2 3 5 8 9 11 12 13 14 15 | 50.2
2'F-ANA at 4 5 6 9 10 15 | 46.2
2'F-ANA at 1 4 7 9 11 12 14 15 | 55.9
2'F-ANA at 1 2 3 4 8 9 11 14 15 | 103
2'F-ANA at 1 4 8 10 12 13 15 | 65.7
2'F-ANA at 1 3 4 6 8 9 11 13 14 15 | 61.2
2'F-ANA at 2 3 5 9 12 15 | 195
2'F-ANA at 1 2 5 6 10 13 14 15 | 67.2
2'F-ANA at 1 2 5 9 10 11 15 | 49.7
2'F-ANA at 5 6 7 10 11 12 13 14 15 | 46.1
2'F-ANA at 1 5 7 8 9 10 11 12 | 63.9
2'F-ANA at 4 7 11 12 | 582
2'F-ANA at 2 10 13 | 128
2'F-ANA at 1 3 5 8 9 14 15 | 45.3
2'F-ANA at 1 2 6 7 8 12 | 343
2'F-ANA at 6 11 12 14 | 202
2'F-ANA at 3 7 8 9 10 12 13 | 658
2'F-ANA at 1 3 6 8 11 13 | 272
2'F-ANA at 1 6 7 10 12 13 | 65.4
2'F-ANA at 5 7 9 10 11 14 | 44.7
2'F-ANA at 1 8 10 11 12 13 | 66.9
2'F-ANA at 4 5 7 8 12 14 15 | 51
2'F-ANA at 3 6 7 10 11 12 13 15 | 440

Set 4
Target: Interferon regulatory factor 5, full length, phosphomimetic (IRF5, Homo sapiens, UniProt Q13568-2, residues 1-514, S451D/S453D/S456D/S462D)
Method: protein-binding microarray
Molecule type: double-stranded DNA, one strand shown
Medium: in vitro
Tested at: 940 nM top
Notes: 60-bp whole probe
Together with: salmon DNA 0.4 mg/ml
Baseline: random background probes
Reading: higher = stronger binding
All sequences stand within: GCCTAGCAC … GTCTTGATTCGCTTGACGCTGCTG
Oligonucleotide | fitted relative affinity
TTAGAACTGGGTTTCGGTTAGTGCTAG | 6.52 z-score
GATGGCCTCTTGCTCAGCCCGTGCTAG | -0.547 z-score
GTCGGACTGGACACTGGGGACGTGCTA | -0.601 z-score
GACGTTTTCCTTTTCCTGACGTGCTAG | 1.48 z-score
GACGGACTGCTTTTCCTTACGTGCTAG | -0.183 z-score
TTAGGTATCGACTATCGCTTAGTGCTA | 5.83 z-score
GGGACTTTGAATTAGAAAGAGTGCTAG | -0.47 z-score
TTAGGTTTCGGGACAGGGTTAGTGCTA | 8.73 z-score
TCCTCTTTCACTGCTCCATACGTGCTA | 2.31 z-score
GACGATATCTGTCTCGAGACGTGCTAG | 0.837 z-score
GCCGGTATCGACTTTCGGGACGTGCTA | 5.17 z-score
TAAGGTTCCGGTTTCGGTTAGTGCTAG | 9.5 z-score
TCAAGTCTCAAAATTAGACTGTGCTAG | -0.0923 z-score
GACAGTATCCTTATCCTGACGTGCTAG | 0.494 z-score
TTTGAGCTCTGTCTGGGATGGTGCTAG | -0.844 z-score
GAGGGACTGGACTTTCGGGACGTGCTA | -0.0634 z-score

Some of these lines once more (set 1):
Oligonucleotide | normalised bound fraction
TTTCCAGCCCTTAGTTTCTGGCATTTAACCTGACTCTGGTCCCTGAATGGCATGGGAGTGCTTTCAACCACTGACTCATTCATTCATGCCACTTGTTTGCTTTTCTGTCACATTCTGATCTACAGAGATCTTTATTTGCTTTGTGTTTCCAATGGAGAAAGAGCTTGGGAAGGGAGGATCCTAATTGTCTAAA | 0.489 ratio
ATCTAGTTCCAGTCTTAGCTTGGCAATTTCTTCCCGCAACATGCTGTTTTCACGCAAGAGATCTTCTTCTTTCTTATGACTAAGAGAAAGCTAAGTAAACAAAGGGAACTTTTAGTTAGCACTCAATAGAATGACATATCATGATTTCTTCTAAAATCAAAGAATGACATTTATATTTGTATAATGAAATAAT | 0.51 ratio
TTTCCAGCCCTTAGTTTCTGGCATTTAACCTGACTCTGGTCCCTGAATGGCATGGGAGTGCTTTCAACCACAGGTTTCCACATTCATGCCACTAGATTGCTTTTCTGACTCATTCTGATCTACAGAGATCTTAAATTGCTTTGTGTTTCCAATGGAGAAAGAGCTTGGGAAGGGAGGATCCTAATTGTCTAAA | -0.0887 ratio
ATCTTCCCCCTCTTCCTTGCCCCACCAGCTCACCTACGGGGGTTATTTGCACAAAGGAAAATAAATAAAGCCGGCATTCGTTAACCCTCTTCACGCGCATACTGCTGTTTGCTCTGCATGAATCATGGTCCTTACGCGAGGCGTGGCTCCGGGAGAGCAAAGCACCGTGTCAGGCGCATGATCCGGGGTGGCC | 0.391 ratio
CACTCATAGTCTTGCTATCCTTCATATACAGAGATGACCCTCCCAAGCCTAAAATCAACAGGGGGAGGCATAGAGCTGTCCTTCTGGCTCTAATGTTTGCTTTACCATCATCTTAGTCCACGCCCATTCCAGCATGTGAGAGCCAGTGTGAAGTGAGCAGAATATGGCATAAGTATGGAGTCATACATCCTTA | 0.372 ratio
ATCTTCCCCCTCTTCCTTGCCCCACCAGCTCACCTACGGGGGTTATTTGCACAAAGGAAAATAAATAAAGCCGGCATTCGTTAACCCTCTTCACGCGCATACTGCTGTTTGCTCTGGATCTAACATGGTCCTTTGGCGAGGCGTGGCTCCGGGAGAGCAAAGCACCGTGTCAGGGCCATGATCCGGGGTGGCC | 0.383 ratio
